{"data": "Measured values from different studies", "note": "Every numbered part comes from another study and shows a few of its results, in no order. Several values in a cell are separate wells, animals, samples, runs or records.", "sequence of UniProt P28221 (whole entry, looked up)": "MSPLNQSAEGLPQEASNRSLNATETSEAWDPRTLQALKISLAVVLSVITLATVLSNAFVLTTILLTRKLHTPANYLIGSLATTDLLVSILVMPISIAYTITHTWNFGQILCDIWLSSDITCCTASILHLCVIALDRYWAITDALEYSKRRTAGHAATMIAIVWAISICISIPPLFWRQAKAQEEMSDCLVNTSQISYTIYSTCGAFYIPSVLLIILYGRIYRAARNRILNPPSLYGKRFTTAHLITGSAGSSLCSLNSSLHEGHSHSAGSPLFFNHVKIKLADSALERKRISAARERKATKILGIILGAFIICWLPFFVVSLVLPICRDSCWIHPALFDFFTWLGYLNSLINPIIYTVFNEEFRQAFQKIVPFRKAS", "sequence of UniProt Q6P3R8 (whole entry, looked up)": "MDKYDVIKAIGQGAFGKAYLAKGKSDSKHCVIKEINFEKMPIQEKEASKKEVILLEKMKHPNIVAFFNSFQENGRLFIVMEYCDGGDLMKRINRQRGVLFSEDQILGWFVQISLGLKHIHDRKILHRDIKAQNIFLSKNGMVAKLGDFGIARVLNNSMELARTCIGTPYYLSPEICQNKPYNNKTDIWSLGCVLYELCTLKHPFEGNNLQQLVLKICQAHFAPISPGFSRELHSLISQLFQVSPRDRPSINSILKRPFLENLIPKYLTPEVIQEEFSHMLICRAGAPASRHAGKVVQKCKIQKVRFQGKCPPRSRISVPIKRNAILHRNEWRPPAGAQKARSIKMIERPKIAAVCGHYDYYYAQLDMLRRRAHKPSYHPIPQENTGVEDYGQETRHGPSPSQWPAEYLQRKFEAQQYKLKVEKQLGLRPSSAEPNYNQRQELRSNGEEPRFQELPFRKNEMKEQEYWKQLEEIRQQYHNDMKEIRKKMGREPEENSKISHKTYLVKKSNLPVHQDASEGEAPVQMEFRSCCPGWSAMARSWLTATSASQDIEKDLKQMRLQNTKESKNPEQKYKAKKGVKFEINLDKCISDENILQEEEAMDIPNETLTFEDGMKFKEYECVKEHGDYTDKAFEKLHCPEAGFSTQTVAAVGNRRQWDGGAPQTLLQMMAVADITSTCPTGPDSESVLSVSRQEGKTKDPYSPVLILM", "sequence of UniProt P30291 (whole entry, looked up)": "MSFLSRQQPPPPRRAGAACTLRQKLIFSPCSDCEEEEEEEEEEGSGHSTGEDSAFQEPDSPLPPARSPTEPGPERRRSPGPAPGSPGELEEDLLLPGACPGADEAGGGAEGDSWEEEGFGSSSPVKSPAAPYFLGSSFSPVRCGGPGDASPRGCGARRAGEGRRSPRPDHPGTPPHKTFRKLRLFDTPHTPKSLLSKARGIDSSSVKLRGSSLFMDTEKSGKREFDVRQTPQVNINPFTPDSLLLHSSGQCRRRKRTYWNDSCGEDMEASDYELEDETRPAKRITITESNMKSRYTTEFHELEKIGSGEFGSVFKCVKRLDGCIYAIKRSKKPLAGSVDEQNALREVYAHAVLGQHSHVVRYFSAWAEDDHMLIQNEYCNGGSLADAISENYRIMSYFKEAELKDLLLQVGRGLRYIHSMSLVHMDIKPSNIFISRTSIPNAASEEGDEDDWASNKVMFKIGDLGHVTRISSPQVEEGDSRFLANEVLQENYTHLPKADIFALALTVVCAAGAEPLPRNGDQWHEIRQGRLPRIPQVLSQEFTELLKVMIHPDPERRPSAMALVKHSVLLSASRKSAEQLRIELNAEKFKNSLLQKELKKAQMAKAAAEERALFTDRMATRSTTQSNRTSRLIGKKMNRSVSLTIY", "sequence of UniProt Q92630 (whole entry, looked up)": "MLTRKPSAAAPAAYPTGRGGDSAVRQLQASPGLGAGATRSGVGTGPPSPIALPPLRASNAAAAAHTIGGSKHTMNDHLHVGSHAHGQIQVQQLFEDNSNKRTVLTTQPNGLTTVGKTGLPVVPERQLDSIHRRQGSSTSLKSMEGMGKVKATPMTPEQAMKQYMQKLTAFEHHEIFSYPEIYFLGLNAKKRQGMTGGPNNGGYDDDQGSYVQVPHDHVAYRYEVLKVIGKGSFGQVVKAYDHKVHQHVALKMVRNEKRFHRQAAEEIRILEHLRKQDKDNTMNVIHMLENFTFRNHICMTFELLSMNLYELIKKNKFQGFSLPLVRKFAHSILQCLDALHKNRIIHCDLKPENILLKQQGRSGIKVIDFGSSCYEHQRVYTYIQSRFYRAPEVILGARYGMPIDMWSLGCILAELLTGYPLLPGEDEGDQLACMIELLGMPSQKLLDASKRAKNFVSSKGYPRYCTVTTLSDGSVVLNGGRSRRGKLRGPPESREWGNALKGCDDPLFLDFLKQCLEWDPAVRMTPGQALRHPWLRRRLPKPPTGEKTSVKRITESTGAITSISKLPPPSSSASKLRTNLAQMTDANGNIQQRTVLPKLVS", "sequence of UniProt P41595 (whole entry, looked up)": "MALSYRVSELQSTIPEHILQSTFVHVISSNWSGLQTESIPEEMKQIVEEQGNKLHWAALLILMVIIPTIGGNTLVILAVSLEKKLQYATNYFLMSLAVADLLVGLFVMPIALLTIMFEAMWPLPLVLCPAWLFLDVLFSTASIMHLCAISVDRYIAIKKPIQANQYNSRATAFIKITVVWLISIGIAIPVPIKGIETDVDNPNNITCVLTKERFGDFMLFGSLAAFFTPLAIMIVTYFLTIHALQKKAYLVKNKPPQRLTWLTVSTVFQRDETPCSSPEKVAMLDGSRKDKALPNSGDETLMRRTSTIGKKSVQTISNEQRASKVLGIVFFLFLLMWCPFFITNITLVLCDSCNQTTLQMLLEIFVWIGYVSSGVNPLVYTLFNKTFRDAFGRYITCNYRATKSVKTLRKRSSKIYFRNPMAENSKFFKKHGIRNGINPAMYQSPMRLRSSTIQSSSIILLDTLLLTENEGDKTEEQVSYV", "sequence of UniProt P42336 (whole entry, unmodified, looked up)": "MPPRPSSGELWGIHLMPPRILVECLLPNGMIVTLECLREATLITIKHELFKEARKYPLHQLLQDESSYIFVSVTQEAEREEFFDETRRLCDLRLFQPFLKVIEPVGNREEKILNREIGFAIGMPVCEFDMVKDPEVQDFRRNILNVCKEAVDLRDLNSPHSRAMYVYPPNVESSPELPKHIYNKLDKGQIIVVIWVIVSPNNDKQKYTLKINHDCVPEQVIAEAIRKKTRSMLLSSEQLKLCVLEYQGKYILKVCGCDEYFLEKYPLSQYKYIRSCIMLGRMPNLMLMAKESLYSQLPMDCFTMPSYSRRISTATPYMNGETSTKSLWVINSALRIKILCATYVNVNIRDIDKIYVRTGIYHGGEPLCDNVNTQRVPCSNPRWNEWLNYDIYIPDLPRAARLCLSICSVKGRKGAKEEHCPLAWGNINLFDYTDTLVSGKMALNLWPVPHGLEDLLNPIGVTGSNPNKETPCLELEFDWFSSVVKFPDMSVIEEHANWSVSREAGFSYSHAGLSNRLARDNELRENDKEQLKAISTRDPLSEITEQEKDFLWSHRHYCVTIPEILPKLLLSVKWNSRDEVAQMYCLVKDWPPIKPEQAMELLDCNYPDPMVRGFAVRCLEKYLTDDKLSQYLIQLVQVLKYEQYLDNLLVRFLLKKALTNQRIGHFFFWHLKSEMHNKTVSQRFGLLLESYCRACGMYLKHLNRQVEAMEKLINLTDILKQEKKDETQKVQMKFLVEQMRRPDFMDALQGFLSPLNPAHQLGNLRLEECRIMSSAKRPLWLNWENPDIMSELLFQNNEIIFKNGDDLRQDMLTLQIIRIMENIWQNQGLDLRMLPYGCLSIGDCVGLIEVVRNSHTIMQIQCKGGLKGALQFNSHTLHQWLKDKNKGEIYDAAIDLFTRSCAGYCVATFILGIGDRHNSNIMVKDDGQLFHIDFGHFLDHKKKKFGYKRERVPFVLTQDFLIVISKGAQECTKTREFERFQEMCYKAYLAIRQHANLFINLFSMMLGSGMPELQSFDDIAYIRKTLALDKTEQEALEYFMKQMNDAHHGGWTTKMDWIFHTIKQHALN"}
{"data": "Sample 1", "cell line": "A-375", "tested at": "100 µM", "time": "18 h"}
{"Compound": "CC[C@H](C)C(=O)O[C@H]1CCC=C2C=C[C@H](C)[C@H](CC[C@@H]3C[C@@H](O)CC(=O)O3)[C@H]21", "viability [%]": 10.5}
{"Compound": "O=C(OCc1ccccc1)c1ccccc1", "viability [%]": 34.2}
{"Compound": "Cc1ccc(C)c(OCCCC(C)(C)C(=O)O)c1", "viability [%]": 108}
{"Compound": "CNC[C@@H](O)c1ccc(O)c(O)c1", "viability [%]": 96.8}
{"Compound": "CCCCC1(COC(=O)CCC(=O)O)C(=O)N(c2ccccc2)N(c2ccccc2)C1=O", "viability [%]": 107}
{"Compound": "COC(=O)[C@@H]1[C@H]2C[C@H]3c4[nH]c5ccccc5c4CCN3C[C@@H]2CC[C@@H]1O", "viability [%]": 83}
{"Compound": "Cc1coc2c1C(=O)C(=O)c1c-2ccc2c(C)cccc12", "viability [%]": 35.5}
{"Compound": "CC(=O)OCC(=O)NCCCOc1cccc(CN2CCCCC2)c1", "viability [%]": 89.8}
{"Compound": "O=C1CC2(CCCC2)CC(=O)N1CCCCN1CCN(c2ncccn2)CC1", "viability [%]": 79.5}
{"Compound": "CN(C)CCOC(=O)COc1ccc(Cl)cc1", "viability [%]": 97.6}
{"Compound": "CC(C(=O)O)c1ccc2c(c1)[nH]c1ccc(Cl)cc12 (stereo not shown)", "viability [%]": 72.4}
{"Compound": "C[C@]12CC[C@@H]3c4ccc(O)cc4CC[C@H]3[C@@H]1C[C@@H](O)[C@@H]2O", "viability [%]": 71.2}
{"data": "Sample 2", "SMILES": "CN1CCN(C(=O)c2ccc(NC(=O)Nc3ccc(N(C)c4ccnc(Nc5ccc(CS(C)(=O)=O)cc5)n4)cc3)cc2)CC1", "observed": "binding", "tested at": "1 µM"}
{"target": "Phosphatidylinositol 4,5-bisphosphate 3-kinase catalytic subunit alpha isoform (PIK3CA, Homo sapiens, UniProt P42336, H1047L)", "remaining binding": "96%"}
{"target": "Dual specificity tyrosine-phosphorylation-regulated kinase 2 (DYRK2, Homo sapiens, UniProt Q92630)", "remaining binding": "75%"}
{"target": "Wee1-like protein kinase (WEE1, Homo sapiens, UniProt P30291)", "assay": "competition with immobilised ligand", "remaining binding": "100%"}
{"target": "Epidermal growth factor receptor (EGFR, Homo sapiens, UniProt P00533, L858R/T790M)", "remaining binding": "55%"}
{"target": "Hepatocyte growth factor receptor (MET, Homo sapiens, UniProt P08581, M1250T)", "remaining binding": "2.2%"}
{"target": "Serine/threonine-protein kinase Nek5 (NEK5, Homo sapiens, UniProt Q6P3R8)", "remaining binding": "82%"}
{"target": "Receptor-type tyrosine-protein kinase FLT3 (FLT3, Homo sapiens, UniProt P36888, D835H)", "remaining binding": "0.8%"}
{"target": "Serine/threonine-protein kinase PRP4 homolog (PRPF4B, Homo sapiens, UniProt Q13523)", "remaining binding": "88%"}
{"data": "Sample 3", "SMILES": "COCCc1ccc(-c2c(C)nc3c(N4CCOCC4)ccnn23)cn1", "observed": "binding", "method": "radioligand binding", "tested at": "10 µM"}
{"target": "5-hydroxytryptamine receptor 3A (HTR3A, Homo sapiens, UniProt P46098)", "inhibition": "4.69%"}
{"target": "5-hydroxytryptamine receptor 1D (HTR1D, Homo sapiens, UniProt P28221)", "inhibition": "11.5%"}
{"target": "5-hydroxytryptamine receptor 2B (HTR2B, Homo sapiens, UniProt P41595)", "inhibition": "52.2%"}
{"data": "Sample 4", "SMILES": "CC(C)(C(=O)O)[C@H](NC(=O)Cc1cccc(I)c1)c1ccc2oc(=O)[nH]c2c1", "method": "Incucyte 3D growth", "tested at": "30 µM", "direction": "higher = more growth"}
{"cell line": "A375", "setting": "6 h", "spheroid area": "1.24e+07 a.u. and 6.94e+06 a.u. and 5.46e+06 a.u. and 5.89e+06 a.u. and 6.43e+06 a.u. and 6.1e+06 a.u."}
{"cell line": "IPC-298", "setting": "300 h", "spheroid area": "4.2e+07 a.u. and 3.19e+07 a.u. and 3.51e+07 a.u. and 3.95e+07 a.u. and 3.97e+07 a.u. and 2.6e+07 a.u."}
{"cell line": "MEL-JUSO", "setting": "90.52 h", "spheroid area": "1.49e+07 a.u. and 1.53e+07 a.u. and 1.47e+07 a.u. and 1.57e+07 a.u. and 1.63e+07 a.u. and 1.51e+07 a.u."}
{"cell line": "KP-4", "setting": "240 h", "spheroid area": "4.41e+07 a.u. and 5.06e+07 a.u. and 5.23e+07 a.u. and 7.72e+07 a.u. and 5.31e+07 a.u. and 2.33e+07 a.u."}
{"cell line": "A375", "setting": "180 h", "spheroid area": "1.12e+08 a.u. and 9.4e+07 a.u. and 1.07e+08 a.u. and 1.28e+08 a.u. and 1.1e+08 a.u. and 1.08e+08 a.u."}
{"cell line": "A375", "setting": "294.52 h", "spheroid area": "1.99e+08 a.u. and 1.81e+08 a.u. and 2.03e+08 a.u. and 1.74e+08 a.u. and 1.76e+08 a.u. and 1.75e+08 a.u."}
{"cell line": "IPC-298", "setting": "84 h", "spheroid area": "2.97e+07 a.u. and 2.8e+07 a.u. and 2.61e+07 a.u. and 3.37e+07 a.u. and 2.39e+07 a.u. and 2.63e+07 a.u."}
{"cell line": "A375", "setting": "222 h", "spheroid area": "1.27e+08 a.u. and 1.53e+08 a.u. and 1.13e+08 a.u. and 1.29e+08 a.u. and 1.26e+08 a.u."}
{"note": "A few entries again (sample 1):"}
{"Compound": "CCCCC1(COC(=O)CCC(=O)O)C(=O)N(c2ccccc2)N(c2ccccc2)C1=O", "viability [%]": 107}
{"Compound": "COC(=O)[C@@H]1[C@H]2C[C@H]3c4[nH]c5ccccc5c4CCN3C[C@@H]2CC[C@@H]1O", "viability [%]": 83}
{"Compound": "Cc1coc2c1C(=O)C(=O)c1c-2ccc2c(C)cccc12", "viability [%]": 35.5}
{"Compound": "CC(=O)OCC(=O)NCCCOc1cccc(CN2CCCCC2)c1", "viability [%]": 89.8}
